Measured values pooled from the literature.
Lines come from different studies, so protocols differ. Several values in a cell are separate wells, animals, samples, runs or records. Numbers after ± are the reported error. Converted amounts (≈) assume the structure as drawn.
BCHE: Cholinesterase (BCHE, Homo sapiens, UniProt P06276)
Sequence of UniProt P06276 (whole entry, looked up): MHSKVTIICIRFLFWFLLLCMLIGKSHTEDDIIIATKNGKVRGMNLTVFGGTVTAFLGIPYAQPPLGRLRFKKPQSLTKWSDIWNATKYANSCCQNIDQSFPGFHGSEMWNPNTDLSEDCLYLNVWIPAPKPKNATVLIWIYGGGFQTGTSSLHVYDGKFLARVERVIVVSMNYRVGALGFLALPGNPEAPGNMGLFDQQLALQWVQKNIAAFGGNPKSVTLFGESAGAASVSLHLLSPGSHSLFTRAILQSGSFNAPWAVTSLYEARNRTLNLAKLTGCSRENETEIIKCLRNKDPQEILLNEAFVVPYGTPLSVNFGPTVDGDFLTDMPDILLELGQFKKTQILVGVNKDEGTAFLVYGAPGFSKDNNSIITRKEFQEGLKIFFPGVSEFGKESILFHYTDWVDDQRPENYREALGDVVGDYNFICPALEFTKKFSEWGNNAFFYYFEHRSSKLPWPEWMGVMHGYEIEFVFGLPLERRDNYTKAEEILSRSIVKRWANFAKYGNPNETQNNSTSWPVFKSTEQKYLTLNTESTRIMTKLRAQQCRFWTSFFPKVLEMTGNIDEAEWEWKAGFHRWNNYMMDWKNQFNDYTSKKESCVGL

Structure (SMILES) | tested on | test | system | setting | how to read | quantity | result
CCN(CC)C(=O)[C@@H]1C=C2c3cccc4[nH]cc(c34)C[C@H]2N(C)C1 |  | measured: increased appetite | healthy volunteers | dose not given, 12 to 24 h | relative to: placebo, direction not given | List of Complaints score | -1
C#Cc1ccc2c(c1)C(c1ccccn1)=NCc1c(-c3cnco3)ncn1-2 |  | thermodynamic equilibrium, UV | ethyl acetate | 24 h, 25 °C |  | solubility | 46.7 mg/mL (≈ 133 mM)
CC1(C)C(C=C(Cl)Cl)C1C(=O)OC(C#N)c1ccc(F)c(Oc2ccccc2)c1 (stereo not drawn) | human cytosolic CES1 | IVIVE from expressed enzymes | human, 6 months old, expressed human CES1 | 0.1 µM | relative to: total hepatic CLint in vivo | relative enzyme contribution | 34.2%
Nc1ncnc2c([C@@H]3N[C@H](CO)[C@@H](O)[C@H]3O)c[nH]c12 | HeLa |  |  | 50 µM |  | cell number | 5120 and 5320
OCc1ncc2n1-c1ccc(Cl)cc1C(c1ccccc1F)=NC2 | CYP3A4 (human) |  | human, plasma | oral, 2 mg midazolam, Day 1, added: single dose encorafenib and binimetinib | relative to: 1-hydroxymidazolam over midazolam | metabolite to parent Cmax ratio | 4.36
CN1CC[C@@H](c2c(O)cc(O)c3c(=O)cc(-c4ccc(C(F)(F)F)cc4Cl)oc23)[C@@H]1CO |  | measured: Thrombocytopenia | relapsed B-cell malignancies | oral, 200 mg, grade 3-4, intermittent dosing |  | patients with adverse event | 0%
CC1(C)[C@H](C(=O)OCc2cccc(Oc3ccccc3)c2)[C@@H]1C=C(Cl)Cl | human cytosolic CES1 | IVIVE from expressed enzymes | human, liver, in vivo scaled | 0.1 µM, age-specific |  | enzyme contribution to CLint | 32.2%
Cc1ncc2n1-c1ccc(Cl)cc1C(c1ccccc1F)=NC2 | CYP3A4, human |  |  | 1-hydroxylation pathway |  | CLint | 5 µL/min/pmol
Cc1ccccc1NC(=O)Nc1ccc(CC(=O)N[C@@H](CCCCNC(=O)/C=C/c2cccnc2)C(=O)N[C@@H](CCCC(=O)O)C(=O)NC2(C(=O)NCCOCCOCCOCCOCC(=O)N[C@@H](CCCCNC(=S)Nc3ccc(CCCN(CCN4CCN(CC(=O)O)CCN(CC(=O)O)CC4)CC(=O)O)cc3)C(N)=O)CCCCC2)cc1 [gallium-68 labelled] |  | shake flask | octanol/PBS | pH 7.4 |  | log D | -2.31 ± 0.04
CC[C@H]1CN2CC[C@H]1C[C@H]2[C@H](O)c1ccnc2ccc(OC)cc12 | BCHE | inhibitor |  |  |  | IC50 | 10.3 ± 3.01 µM
CC(=O)N1CCC(C(=O)N2CCN3C(=O)c4cc(-c5ccccc5)ccc4NC(=O)C3C2)CC1 (stereo not drawn) | Escherichia coli |  | WP2 uvrA | 500 µg/plate, with rat liver S9 |  | revertants per plate | 38
O=[N+]([O-])c1ccc(N2CCC(NCCC(O)c3ccc(F)c4ccccc34)CC2)c(C(F)(F)F)c1 (stereo not drawn) | Salmonella typhimurium | SOS/umu test | TA1535/pSK1002 | 6.1e-05 mg/mL, 4 h, without S9 | relative to: untreated | induction factor | 0.6
CO[C@H]1C[C@@H]2CC[C@@H](C)[C@@](O)(O2)C(=O)C(=O)N2CCCC[C@H]2C(=O)O[C@H]([C@H](C)C[C@@H]2CC[C@@H](OC(=O)NCCOCCOCCOCCOCCOCCOCCOCCOCCC(=O)N3CCc4cc(Cn5nc(-c6ccc7oc(N)nc7c6)c6c(N)ncnc65)ccc4C3)[C@H](OC)C2)C[C@@H](O)[C@H](C)/C=C(\C)[C@@H](O)[C@@H](OC)C(=O)[C@H](C)C[C@H](C)/C=C/C=C/C=C/1C |  |  | patients with advanced solid tumours | intravenous, 1.6 mg/3 mg weekly, grade ≥3 |  | incidence of Mucositis TRAE | 0%
COc1cccc(-c2n[nH]c(SCc3ccccn3)n2)c1OC | Salmonella typhimurium | Ames test, plate incorporation | TA100 | 0.25 mg/plate, without S9 |  | revertant colonies per plate | 108
O=[N+]([O-])c1ccc(N2CCN(CCC(O)c3ccc(F)cc3)CC2)c(C(F)(F)F)c1 (stereo not drawn) | Salmonella typhimurium | SOS/umu test | TA1535/pSK1002 | 0.031 mg/mL, 4 h, without S9, lower range |  | survival | 98.2%
COc1cc2c(Oc3ccc4[nH]c(C)cc4c3F)ccnc2cc1OCC1(N)CC1 |  |  | paediatric recurrent refractory sarcoma | 10 mg |  | grade 1 or 2 TBIL elevation | 0%
[Cl-].[Cl-].[Pt+2].[Ru+2].c1ccc(-c2nc3cc4ccccc4cc3nc2-c2ccccn2)nc1.c1cnc2c(c1)ccc1cccnc12.c1cnc2c(c1)ccc1cccnc12 | Danio rerio |  | embryos | 30 µM, 96 h |  | hatching rate | 50 ± 5.7%
Cc1c(NC(=O)c2cc3c(s2)CCCC3)cccc1-c1cn(C)c(=O)c(Nc2ccc(C3C(=O)N(C)CCN3C)cc2)n1 (racemic) | BCHE | inhibitor, fluorometric |  |  |  | IC50 | 13.8 ± 6.37 µM
N=C(N)NCCC[C@@H]1NC(=O)[C@H](CCCCNC(=O)c2ccc(CNC34CNCCNCC(N)(CNCCNC3)CNCCNC4)cc2)NC(=O)[C@@H](Cc2ccc(O)cc2)NC(=O)[C@H](CC(=O)O)NC(=O)CNC1=O [copper-64 labelled] |  | microPET | male athymic nude mouse, PC-3 tumour, liver | intravenous, 7.4 MBq, 24 h |  | tissue uptake | 0.96 ± 0.14 %ID/g
CCCC[C@H](NC(C)=O)C(=O)N[C@@H](CO)C(=O)N[C@H](C(=O)N1CCC[C@H]1C(=O)N[C@@H](C)C(=O)N[C@@H](CCCNC(=N)N)C(=O)N[C@@H](CCCNC(=N)N)C(=O)N[C@@H](CCCNC(=N)N)C(=O)N[C@@H](CC(C)C)C(=O)N[C@@H](CCCC)C(=O)N[C@@H](CCCNC(=N)N)C(=O)N[C@@H](CC(=O)O)C(=O)N[C@@H](Cc1ccccc1)C(=O)N[C@@H](CCCCN)C(=O)N[C@@H](CCCNC(=N)N)C(=O)N[C@@H](CC(C)C)C(=O)N[C@@H](CCC(N)=O)C(N)=O)[C@@H](C)O | proteinase K | LC-MS |  | 25 µM, 81.9 min, pH 7.4 |  | remaining peptide | 4.7% and 0%
CC(C)CC(=O)OC[C@H]1O[C@@](C#N)(c2ccc3c(N)ncnn23)[C@H](O)[C@@H]1O | ABCB1 (Homo sapiens, UniProt P08183) | basolateral to apical transport | Caco-2 | 0.9 µM, 2 h |  | recovery | 76.2%
CN(C)CCC(c1ccccc1)c1ccccn1 (stereo not drawn) | Plasmodium falciparum |  | 7G8 |  |  | IC50 | 5.01 µM
COC(=O)[C@@H](NC(=O)c1nn(Cc2ccc(F)cc2)c2ccccc12)C(C)(C)C | central CB1 receptor |  | mouse | intraperitoneal |  | dose producing catalepsy | 0.1 mg/kg
NC12CC3CC(CC(C3)C1)C2 | Plasmodium falciparum |  | GB4 |  |  | IC50 | 10 µM
O=c1ccc2ccccc2o1 | NHEK | cell count |  | concentration not given, 1 h, XBP1 panel |  | chance response | 0.04%
Cc1cc(C(=O)NC(C)(C)COc2cccc3c2C(N)=NS(=O)(=O)N3)cc(C)n1 | Salmonella typhimurium | Ames test, confirmatory | TA100 | 100 µg/plate, added: rat liver S9 | relative to: solvent control | revertant ratio | 1.1
O=C1c2c(O)c(=O)ccn2N([C@@H]2c3ccccc3SCc3c2ccc(F)c3F)[C@@H]2COCCN12 |  |  | BALB/c mice, plasma | oral, 5 mg/kg baloxavir marboxil, 0.5 h |  | plasma concentration | 45.7 ng/mL

Repeated from above:
Structure (SMILES) | tested on | test | system | setting | how to read | quantity | result
Cc1c(NC(=O)c2cc3c(s2)CCCC3)cccc1-c1cn(C)c(=O)c(Nc2ccc(C3C(=O)N(C)CCN3C)cc2)n1 (racemic) | BCHE | inhibitor, fluorometric |  |  |  | IC50 | 13.8 ± 6.37 µM
N=C(N)NCCC[C@@H]1NC(=O)[C@H](CCCCNC(=O)c2ccc(CNC34CNCCNCC(N)(CNCCNC3)CNCCNC4)cc2)NC(=O)[C@@H](Cc2ccc(O)cc2)NC(=O)[C@H](CC(=O)O)NC(=O)CNC1=O [copper-64 labelled] |  | microPET | male athymic nude mouse, PC-3 tumour, liver | intravenous, 7.4 MBq, 24 h |  | tissue uptake | 0.96 ± 0.14 %ID/g
CCCC[C@H](NC(C)=O)C(=O)N[C@@H](CO)C(=O)N[C@H](C(=O)N1CCC[C@H]1C(=O)N[C@@H](C)C(=O)N[C@@H](CCCNC(=N)N)C(=O)N[C@@H](CCCNC(=N)N)C(=O)N[C@@H](CCCNC(=N)N)C(=O)N[C@@H](CC(C)C)C(=O)N[C@@H](CCCC)C(=O)N[C@@H](CCCNC(=N)N)C(=O)N[C@@H](CC(=O)O)C(=O)N[C@@H](Cc1ccccc1)C(=O)N[C@@H](CCCCN)C(=O)N[C@@H](CCCNC(=N)N)C(=O)N[C@@H](CC(C)C)C(=O)N[C@@H](CCC(N)=O)C(N)=O)[C@@H](C)O | proteinase K | LC-MS |  | 25 µM, 81.9 min, pH 7.4 |  | remaining peptide | 4.7% and 0%
CC(C)CC(=O)OC[C@H]1O[C@@](C#N)(c2ccc3c(N)ncnn23)[C@H](O)[C@@H]1O | ABCB1 (Homo sapiens, UniProt P08183) | basolateral to apical transport | Caco-2 | 0.9 µM, 2 h |  | recovery | 76.2%
